Results collected from several papers.
Numbered parts are unrelated; each lists some results of a single study.

Series 1
Target: RNA binding protein fox-1 homolog 2, RRM domain, GST-SBP tag (RBFOX2, Homo sapiens, UniProt O43251-10, residues 100-194)
Method: RNA Bind-n-Seq
Form: RNA
Matrix: in vitro
Concentration: 365 nM
Notes: natural RNA segment, single round, ends assumed
Relative to: no-protein control
Reading: higher = stronger binding
Residues (chain): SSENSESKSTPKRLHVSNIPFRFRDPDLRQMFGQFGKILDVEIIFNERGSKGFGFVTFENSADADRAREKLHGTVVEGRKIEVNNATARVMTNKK
| Oligonucleotide | RBNS enrichment (R) |
| --- | --- |
| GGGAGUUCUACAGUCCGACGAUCGCCUGAAGCUAUUGCUGCUCGUCUACCAGGAGGAUGUGGAGAUCUUUAGACACGAAAUGCGUGCUAGGACUGGCAGCAGUUCCUGAGCCUGGCUGCCAGGCAACAGGAAGUGGAAUUCUCGGGUGCCAA | 0.83 |
| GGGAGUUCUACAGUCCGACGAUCAGCAUUUUUUAGGGAGAAAAAUAAAUAUAUGCUGUAGUGGCCACAAAUAGGCCUAUGAUUUAGCUGGCAGGCCAGGUUUUCUCAAGAGCAAAAUCACCCUCUGGCCCCUUUGGAAUUCUCGGGUGCCAA | 0.434 |
| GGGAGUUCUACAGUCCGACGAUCUGUCUCUCCCAGUACAUCCCCGGAUUGGUGUGGGUAGAUAGGCCAACGUAUGGUGAUCUCCCCUAGUGUCUGGAUGGACUUAAUGCUCAUCCCUGACCAGAGACUAGGGUUGGAAUUCUCGGGUGCCAA | 0.339 |
| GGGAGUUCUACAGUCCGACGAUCUUUGCUGGCCCCCAAGCUGUUGUUUGUUAGGUGAGGUUAAGUAGGGCUCUUCUGGUCCUGUGCAUACCUAUUGCCUUUGACAGAACGGUACAGUUUGUUUAUGCAGGAGGUGGAAUUCUCGGGUGCCAA | 0.387 |
| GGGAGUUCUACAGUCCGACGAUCACAAAAAAAUGCUACUCCUAGUUCAGAUGUUGUGCCCUUCAUUUCUAAAGCCGAUGUUUUGCCCUCUUUGGAAAGACUGAGAACUGUGGCCUGAUUUCGUCCAUAUUCUAUGGAAUUCUCGGGUGCCAA | 0.442 |
| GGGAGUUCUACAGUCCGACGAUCGCCACCCACCCAUCAUAUUUGAUUCUGUGGGAGUGGGCACCCAUACACCUGUGUAUGUGAAAGUCAUUUUACAUUUCCAAGCAGUCUGUUUCUUAUUUUUAUAUUUUAACUGGAAUUCUCGGGUGCCAA | 0.338 |
| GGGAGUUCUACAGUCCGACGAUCAGCCACACAGCUAUUCUUUGGCCAGACCCUCACUACAGUAACUCAUCAACUCUGGCUCUUGUAGGGGCUGGAGCAGCUAGUUCAUGCUGCCUGUGGAACUCACUUCCUGGUGGAAUUCUCGGGUGCCAA | 0.244 |
| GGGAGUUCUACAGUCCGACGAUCAAGAAAAGUCAGAAGAAUCUUUAAGAUUUUAAAAAUGUCUUUAAAGUUUUUAAAAUGCUUACUACAUACUUAUAUACACCCCUUGUGAAGAACACAUGACUUUUUAAAGAUGGAAUUCUCGGGUGCCAA | 0.547 |

Series 2
Target: RING finger protein unkempt homolog, zinc fingers 1-6, GST-SBP tag (UNK, Homo sapiens, UniProt Q9C0B0, residues 30-357)
Method: RNA Bind-n-Seq
Form: RNA
Matrix: in vitro
Concentration: not given
Notes: RNA with constant flanks, human and mouse sites, ends assumed
Relative to: input RNA pool
Reading: higher = stronger binding
Residues (chain): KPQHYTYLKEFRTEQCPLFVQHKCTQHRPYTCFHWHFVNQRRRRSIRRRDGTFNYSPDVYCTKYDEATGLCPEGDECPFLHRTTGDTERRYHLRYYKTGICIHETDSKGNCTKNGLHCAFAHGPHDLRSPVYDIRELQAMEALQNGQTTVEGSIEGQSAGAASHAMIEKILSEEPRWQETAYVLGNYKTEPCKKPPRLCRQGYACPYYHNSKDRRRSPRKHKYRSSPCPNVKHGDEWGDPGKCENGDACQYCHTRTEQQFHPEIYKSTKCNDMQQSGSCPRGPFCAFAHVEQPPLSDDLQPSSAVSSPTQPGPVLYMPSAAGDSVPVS
| Oligonucleotide | bound/input enrichment |
| --- | --- |
| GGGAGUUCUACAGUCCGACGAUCCUGGGAUGGUGGAAUUGGGGUUAUUUCUACAAUUAUUCUUAGACGAUUACUAAACUGUUAAGAAAUGCCCCAUAUCAUUUUUGUAUCUAGGAAAGAAAAAAAUCAGUUUCAUACUGUUGUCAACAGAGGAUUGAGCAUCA | 1.31 ratio |
| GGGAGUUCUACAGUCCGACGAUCACGGAUAUCGCCUACAACCAGACCAUCCUGCCCAACCUGCUGGGCCACACGAACCAAGAGGACGCGGGCCUCGAGGUGCACCAGUUCUACCCUCUGGUAAAGGUGCAGUGUUCUCCUGAGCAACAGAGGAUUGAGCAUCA | 0.0724 ratio |
| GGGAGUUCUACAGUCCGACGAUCGUAAUAGUAGCAAAUCCUAGGGAAGAAAUAAUCGUGAAAAAUAAAGAUGAAGAAGAGAAGUUAGUUAGUAAUAACAUCCUUCAUAAUCAACAAGAGUUACCUACAGCUCUUACUAAAUUGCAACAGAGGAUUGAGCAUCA | 2.69 ratio |
| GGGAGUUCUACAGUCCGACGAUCCGUGAGAAGAUCGAGGCGGAGCUGCAGGACAUCUGCAACGAUGUGCUGGAGCUGUUGGACAAAUAUCUCAUUCUCAAUGCCACCCAGGCAGAAAGCAAAGUGUUCUACUUAAAAAUGAAACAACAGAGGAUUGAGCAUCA | 0.1 ratio |
| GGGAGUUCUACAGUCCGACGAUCCGCCGCCGCCCGCACGCCCGCUGCCCGUCGCCCGGUUCAUCCAUGAGCUCAGAUUUCCCACAUUAUAACUUCAGGAUGCCUAAUAUUGGAUUCCAGAAUCUGCCUCUCAACAUCUAUAUCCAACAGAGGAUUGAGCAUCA | 0.16 ratio |
| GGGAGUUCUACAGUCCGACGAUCAGCACAUGAUUUGGGAAUUACACUUUGUGACAUGGAUGAAUCUGCACUGACCCUUGGUACAAUAGAUGUUUCUUAUCUGCCACAUUCAUCAGAAUACAGUGUUGGUCGAUGUAAGCACACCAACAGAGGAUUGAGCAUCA | 0.228 ratio |
| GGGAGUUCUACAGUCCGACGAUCGCCAACAUCAAACGGGAACAGGGCAACAUUGAAGAGGCAGUUCGCCUGUAUCGCAAAGCAUUAGAAGUCUUCCCAGAGUUUGCUGCUGCACAUUCCAAUUUAGCAAGUGUACUGCAACAGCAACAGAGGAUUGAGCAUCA | 0.483 ratio |
| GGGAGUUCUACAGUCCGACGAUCUGCUGGCUCUGUUUUUCUGUAAAUAAAUUUGCAUAUUUUGUAGGACUUUUAAUUGUAAUGAUAGAGAAAAAACAAGGAAAACUAUUUAAUGAAAGCACGAUAUUUAUCUUUGGUAAAUGACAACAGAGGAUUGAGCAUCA | 1.88 ratio |

Series 3
Target: Histone acetyltransferase KAT6A, winged helix 1, GST fusion (KAT6A, Homo sapiens, UniProt Q92794, residues 1-85)
Method: protein binding microarray
Form: double-stranded DNA, one strand shown
Matrix: in vitro
Concentration: not given
Notes: 8-mer, flanks averaged, mean of 2 arrays, mostly near background
Relative to: not given
Reading: higher = stronger binding
Residues (chain): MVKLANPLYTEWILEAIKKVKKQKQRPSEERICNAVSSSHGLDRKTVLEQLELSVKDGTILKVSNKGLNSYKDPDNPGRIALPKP
| Oligonucleotide | E-score |
| --- | --- |
| CACTAAAC | 0.0231 |
| GAGTAAAC | -0.0288 |
| CATAGTGA | -0.197 |
| AAGTACCC | 0.0829 |
| AAATCGAG | -0.155 |
| ACGGGAAC | 0.399 |
| AGCAACAC | -0.191 |
| AAGATAAG | -0.211 |
| AAGTCACC | -0.12 |
| AGTGAGGA | -0.22 |
| GGACCTCC | 0.0927 |
| TAAGTCGA | -0.26 |
| ATAACTGG | -0.243 |
| CCTAACTA | -0.0647 |
| AGAGATCC | -0.193 |
| ACGATATC | -0.0767 |
| CCCACCGC | 0.281 |
| AAAGTGGG | -0.162 |
| ATGCTCCA | -0.151 |
| GCGGGTCA | 0.241 |
| GTATGGCA | 0.0213 |
| AACTGATT | -0.133 |
| GTAGGCAA | -0.241 |
| CTGTCTAC | -0.17 |
| GATTCGAA | -0.088 |

Series 4
Target: Sal-like protein 4, full length isoform A (SALL4, Homo sapiens, UniProt Q9UJQ4, residues 1-1053)
UniProt Q9UJQ4, sequence (whole entry, looked up): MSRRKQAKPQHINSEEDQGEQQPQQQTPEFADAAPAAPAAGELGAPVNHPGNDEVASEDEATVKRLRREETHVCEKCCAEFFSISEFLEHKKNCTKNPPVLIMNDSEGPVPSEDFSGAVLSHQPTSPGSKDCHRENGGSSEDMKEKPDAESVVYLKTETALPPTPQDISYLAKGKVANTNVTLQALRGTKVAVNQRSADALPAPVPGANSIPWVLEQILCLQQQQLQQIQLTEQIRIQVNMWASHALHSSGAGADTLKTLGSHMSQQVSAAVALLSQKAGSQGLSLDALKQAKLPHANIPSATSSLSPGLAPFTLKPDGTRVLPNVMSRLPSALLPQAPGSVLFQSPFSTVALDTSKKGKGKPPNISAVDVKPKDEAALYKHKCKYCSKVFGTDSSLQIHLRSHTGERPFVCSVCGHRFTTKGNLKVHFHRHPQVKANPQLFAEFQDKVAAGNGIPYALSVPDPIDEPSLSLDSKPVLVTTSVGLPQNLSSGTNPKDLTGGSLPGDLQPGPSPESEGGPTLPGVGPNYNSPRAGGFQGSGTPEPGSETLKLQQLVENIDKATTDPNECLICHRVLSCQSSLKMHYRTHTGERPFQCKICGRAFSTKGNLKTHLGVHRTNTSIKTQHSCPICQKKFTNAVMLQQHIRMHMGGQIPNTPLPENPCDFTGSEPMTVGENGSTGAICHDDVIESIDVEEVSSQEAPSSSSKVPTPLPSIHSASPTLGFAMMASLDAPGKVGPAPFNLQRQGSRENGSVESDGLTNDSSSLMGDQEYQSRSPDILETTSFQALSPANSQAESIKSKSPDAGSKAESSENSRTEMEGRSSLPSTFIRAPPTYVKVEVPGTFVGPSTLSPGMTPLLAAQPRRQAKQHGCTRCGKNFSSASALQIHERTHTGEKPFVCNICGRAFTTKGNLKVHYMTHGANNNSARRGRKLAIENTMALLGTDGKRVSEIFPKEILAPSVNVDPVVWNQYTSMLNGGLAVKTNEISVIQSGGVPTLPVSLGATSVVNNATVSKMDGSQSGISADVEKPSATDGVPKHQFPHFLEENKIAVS
Method: universal PBM
Form: double-stranded DNA, one strand shown
Matrix: in vitro
Concentration: 600 nM
Notes: 8-mer, flanks averaged, mean of replicates
Reading: higher = stronger binding
| Oligonucleotide | E-score |
| --- | --- |
| CAGTGGCA | -0.106 |
| AGCGAGAG | -0.0282 |
| CCAGGTAA | -0.0126 |
| GAGAGCTC | -0.195 |
| AAGCACGT | -0.0105 |
| ACTGCCCC | -0.247 |
| CTGGGTAA | 0.0492 |
| CCGTACGC | -0.201 |
| GGCCTCCA | -0.193 |
| CACGGTCC | -0.341 |
| CCTTCTCG | -0.219 |
| CTCGATGA | 0.0261 |
| ACACCCCG | -0.331 |
| ACTGGCAA | 0.144 |
| AAAATCGA | 0.134 |
| AGCGATTG | -0.0543 |
| GGTTCCAA | -0.129 |
| ATGTTGCG | 0.116 |

Excerpt of the above (series 2):
| Oligonucleotide | bound/input enrichment |
| --- | --- |
| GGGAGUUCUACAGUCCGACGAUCCUGGGAUGGUGGAAUUGGGGUUAUUUCUACAAUUAUUCUUAGACGAUUACUAAACUGUUAAGAAAUGCCCCAUAUCAUUUUUGUAUCUAGGAAAGAAAAAAAUCAGUUUCAUACUGUUGUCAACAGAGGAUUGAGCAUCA | 1.31 ratio |
| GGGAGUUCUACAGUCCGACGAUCACGGAUAUCGCCUACAACCAGACCAUCCUGCCCAACCUGCUGGGCCACACGAACCAAGAGGACGCGGGCCUCGAGGUGCACCAGUUCUACCCUCUGGUAAAGGUGCAGUGUUCUCCUGAGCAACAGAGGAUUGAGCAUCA | 0.0724 ratio |
| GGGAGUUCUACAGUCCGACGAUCGUAAUAGUAGCAAAUCCUAGGGAAGAAAUAAUCGUGAAAAAUAAAGAUGAAGAAGAGAAGUUAGUUAGUAAUAACAUCCUUCAUAAUCAACAAGAGUUACCUACAGCUCUUACUAAAUUGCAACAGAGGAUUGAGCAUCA | 2.69 ratio |
| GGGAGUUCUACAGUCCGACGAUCCGUGAGAAGAUCGAGGCGGAGCUGCAGGACAUCUGCAACGAUGUGCUGGAGCUGUUGGACAAAUAUCUCAUUCUCAAUGCCACCCAGGCAGAAAGCAAAGUGUUCUACUUAAAAAUGAAACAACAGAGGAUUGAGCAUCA | 0.1 ratio |
| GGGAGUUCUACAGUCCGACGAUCCGCCGCCGCCCGCACGCCCGCUGCCCGUCGCCCGGUUCAUCCAUGAGCUCAGAUUUCCCACAUUAUAACUUCAGGAUGCCUAAUAUUGGAUUCCAGAAUCUGCCUCUCAACAUCUAUAUCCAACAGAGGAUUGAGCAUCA | 0.16 ratio |
| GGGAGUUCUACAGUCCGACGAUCAGCACAUGAUUUGGGAAUUACACUUUGUGACAUGGAUGAAUCUGCACUGACCCUUGGUACAAUAGAUGUUUCUUAUCUGCCACAUUCAUCAGAAUACAGUGUUGGUCGAUGUAAGCACACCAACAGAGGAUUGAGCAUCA | 0.228 ratio |
| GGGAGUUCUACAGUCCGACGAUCGCCAACAUCAAACGGGAACAGGGCAACAUUGAAGAGGCAGUUCGCCUGUAUCGCAAAGCAUUAGAAGUCUUCCCAGAGUUUGCUGCUGCACAUUCCAAUUUAGCAAGUGUACUGCAACAGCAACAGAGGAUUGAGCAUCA | 0.483 ratio |
| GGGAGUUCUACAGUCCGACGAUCUGCUGGCUCUGUUUUUCUGUAAAUAAAUUUGCAUAUUUUGUAGGACUUUUAAUUGUAAUGAUAGAGAAAAAACAAGGAAAACUAUUUAAUGAAAGCACGAUAUUUAUCUUUGGUAAAUGACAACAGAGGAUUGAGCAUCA | 1.88 ratio |
